Measured values collected from several papers.
Each line is one published result; not all experiments were run side by side. “And” joins repeats or separate records; there may be more than shown. Numbers after ± are the reported error.

SMILES	tested on	assay	system	conditions	scale	measurement	result
C=CC(=O)N1[C@H](c2ccc3c(c2)OCO3)c2[nH]c3ccccc3c2C[C@@H]1C(=O)NC	rat DRG neurons	–	–	10 µM, 48 h, together with: vincristine 40 nM	–	neuron degeneration	11.9% and 11%
Cn1ncc2cc(-c3cncc(Cl)c3N3CCC4(CCNC4=O)CC3)ccc21	LS174T	gene expression, microarray, item: CA9 mRNA	–	concentration not given, 4 h	relative to: untreated cells	log2 fold change	2.84
Cc1ccncc1.[Cl-].[Cl-].[Ru+2].c1cc(-c2ccc3cccnc3n2)nc(-c2ccc3cccnc3n2)c1.c1ccc2cc3nc4c5cccnc5c5ncccc5c4nc3cc2c1	A-375	resazurin	–	together with: light 733 nm, 9 mW, 100 J/cm2	–	EC50	1620 nM
N#Cc1cccc(/C=C/C(=O)c2ccc(O)cc2)c1	U-87 MG	item: RNF103	–	concentration not given	relative to: untreated	fold change	41.3
C=C1CC2(C(=O)OC)C=C(C(=O)OC(C)(C)C)C(=O)C1C2 (stereo not shown)	AP-1 reporter HEK293	AP-1 reporter gene, luciferase reporter	–	10 µM, 6 h, together with: PMA 6 ng/mL	higher = more transcription	luminescence	3450 a.u.
CC(C)C[C@@H]1NC(=O)[C@H](CC(C)C)NC(=O)[C@H](Cc2c[nH]c3ccccc23)NC(=O)[C@H](CO)NC(=O)[C@H](Cc2c[nH]c3ccccc23)NC(=O)[C@@H]2CCCN2C(=O)[C@H](CC(C)C)NC(=O)[C@H](Cc2c[nH]cn2)NC(=O)[C@@H]2CCCN2C(=O)[C@H](CC(N)=O)NC(=O)[C@H](C)NC(=O)[C@H](Cc2ccc(O)cc2)NC(=O)[C@H](CS)NC(=O)[C@H](CCCCNC(=O)CN2CCN(CC(=O)O)CCN(CC(=O)O)CCN(CC(=O)O)CC2)NC1=O [lutetium-177 labelled]	4T1	flow cytometry	–	0.4 Bq/cell, 24 h	–	dead cells	24.2%
Cn1ncc(-c2ccc3c(=O)[nH]nc(CN)c3c2)c1-c1c(F)c(Cl)cc(OC2CC2)c1C#N	NCI-H292	cell viability, inhibitor, CellTiter-Glo	–	120 h, baseline-subtracted	–	IC50	150 nM
COC1CN([C@H]2CC[C@H]([C@@]3(C)Oc4c(Cl)cc(C(=O)NCc5c(SC)cc(C)[nH]c5=O)c(C)c4O3)CC2)C1	–	RNA-seq, item: MYO1D	human, whole blood	dose not given, 24 h	relative to: pretreatment baseline	log2 fold change	1.19
Cc1ncsc1-c1ccc([C@H](C)NC(=O)[C@@H]2C[C@@H](O)CN2C(=O)[C@@H](NC(=O)CN2CCN(CC3CCN(CC(=O)N4CCN(c5ncc(-c6cc(NC(=O)c7ccc(F)cc7C(F)(F)F)c(N7C[C@@H](C)N(C)[C@@H](C)C7)cc6F)cn5)CC4)CC3)CC2)C(C)(C)C)cc1	Sf9	global proteomics, item: XP_035429818.1	–	10 µM	relative to: DMSO	log2 fold change	-1.45
C=CC(=O)Nc1cccc(Cn2ncc3cnc(Nc4cnn(CCOC)c4)nc32)c1	human TRKA	KINOMEscan	–	100 nM	relative to: control	binding	40%
C[C@@H]1CC[C@@H]([C@](O)(CNCc2ccccc2F)COCc2ccccc2)[C@H](OCc2ccccc2)C1	MDA-MB-231	cell growth or viability, MTT	–	30 µM, 72 h	–	inhibition	93.8%
CC(C)(C)c1cc(-c2ccc3cccnc3n2)nc(-c2ccc3cccnc3n2)c1.[Cl-].[Cl-].[Ru+2].c1cnc2c(c1)ccc1cccnc12	A-375	cytotoxicity, resazurin	–	dark	–	EC50	292000 ± 9000 nM
CC(C)c1ccc(N(C)c2ccc3c(c2)OCC[C@H]3CNc2cnccc2C(=O)O)cc1	SK-MES-1	cell growth or viability, ATP luminescence	–	7 days	–	IC50	47.5 nM
Nc1ncc(-c2cc(-c3cnn(CC(F)(F)F)c3)ncc2F)nc1C(=O)NC1CNCC(F)C1 (stereo not shown)	CAMK2D	KINOMEscan	–	1 µM	relative to: DMSO control	remaining binding	85%
CCN(CC)CC(=O)Nc1cccc(-n2cc(-c3ccc4ccc(-c5cn(-c6cccc(NC(=O)CN(CC)CC)c6)nn5)cc4c3)nn2)c1	RCC4	PCR angiogenesis array, item: TIMP1	–	5 x IC50, 6 h, normoxia	relative to: untreated	fold regulation	-1.22 fold
CN1CCCNC(=O)c2cccc(c2)C(=O)NCCCN(C)CCCNc2cccc3c2C(=O)c2cccc(c2C3=O)NCCC1	SAS	RNA-Seq, item: WDR43 mRNA	–	1 µM, 6 h	relative to: untreated cells	log2 fold change	-1.09

SMILES	tested on	assay	system	conditions	scale	measurement	result
CC(=O)[O][Pd][c]1ccccc1-n1nc(C)cc1C.CC(=O)[O][Pd][c]1ccccc1-n1nc(C)cc1C	MDA-MB-231	FLICA flow cytometry	–	25 µM, 24 h	–	caspase-9 active cells	29.5 ± 1.9%
CCCNC(=O)[C@H]1O[C@@H]1C(=O)N[C@H](C(=O)N1CCC[C@H]1C(=O)OCC1=C2C(C)=CC(C)=[N+]2[B-](C)(C)n2c(C)cc(C)c21)[C@@H](C)CC	MDA-MB-231	MTT	–	10 µM, 4 h, irradiated 460-470 nm, 5 min	relative to: DMSO	viability	< 10%
O=C(N/N=C/c1cc[n+](Cc2ccccc2)c2ccccc12)c1cccc(C(=O)N/N=C/c2cc[n+](Cc3ccccc3)c3ccccc23)n1	MYC parallel G4 DNA	FRET melting	–	1 µM, DNA 0.2 µM	–	ΔTm	11 ± 0.4 °C
O=C1c2c(O)cc(O)cc2-c2c(-c3ccc(O)cc3)oc3cc(O)cc1c23	LCC2 shControl	label-free proteomics, item: SMTN	–	10 µM	relative to: DMSO	protein level ratio	6.7
COc1ccc(NC(=O)c2ccc3[nH]c(-c4ccc(N(C)C)cc4)nc3c2)cn1	HCT116	IncuCyte	–	concentration not given, 8 h	–	dead cell to confluence ratio	22.5 and 32.2 and 7.7
CCN(C(=O)c1cc(F)ccc1Oc1nncnc1N1CCC2(C1)CN([C@H](CCCN(C)CCOC)C(C)C)C2)C(C)C	DLD-1	cell growth or viability	–	7 days	–	GI50	> 10000 nM
CNS(=O)(=O)Nc1nccc(Cc2c(C)c3ccc(Oc4ncccc4F)cc3oc2=O)c1F	ABC-1	cell viability	–	7 days	–	IC50	113 nM
O=C(N/N=C/c1cc[n+](Cc2ccccc2)c2ccccc12)c1cncc(C(=O)N/N=C/c2cc[n+](Cc3ccccc3)c3ccccc23)n1	MYC parallel G4 DNA	FRET melting	–	1 µM, DNA 0.2 µM	–	ΔTm	10.4 ± 0.3 °C
CCOc1cncc(-c2ccc(NC(=O)C3(c4ccnc(NS(=O)(=O)C5CC5)n4)CCOCC3)nc2)n1	OPM-2	cell growth or viability, ATP luminescence	–	72 h	–	IC50	116 nM
COc1cccc(OC)c1-c1cc(C(=O)NC2(C(=O)O)C3CC4CC(C3)CC2C4)nn1-c1ccc(C(=O)NCCNC(=O)[C@H](CCCCNC(=O)[C@H](CC(C)C)NC(=O)C2OC2C(=O)O)NC(=O)CN2CCN(CC(=O)[O-])CCN(CC(=O)[O-])CCN(CC(=O)[O-])CC2)cc1C(C)C.[177Lu+3] (mixture of isomers)	HT-29	–	–	240 min, 4 h	relative to: added activity	internalized fraction	2.08 ± 0.11%
Cc1ncsc1-c1ccc(C(C)NC(=O)C2CC(O)CN2C(=O)C(NC(=O)CCCCCCCCCCN2CCCC(Nc3ncc(Cl)c(Nc4ccccc4S(=O)(=O)C(C)C)n3)C2)C(C)(C)C)cc1 (stereo not shown)	22Rv1	RNA-seq, item: ZNF730 mRNA	–	concentration not given	relative to: DMSO	log2 fold change	-1.98
CC(C)(C)c1cc(-c2ccc3cc4ccccc4nc3n2)nc(-c2ccc3cc4ccccc4nc3n2)c1.[Cl-].[Cl-].[Ru+2].c1ccc2cc3nc4c5cccnc5c5ncccc5c4nc3cc2c1	A-375	resazurin	–	together with: light 633 nm, 100 J/cm2	relative to: dark EC50 over light EC50	phototoxicity index	2
CCc1c(-c2ccc3[nH]ncc3c2)cnc(N)c1-c1ccc(O)cc1	CHP-212	cell growth or viability, SRB	–	0.3906 µM	–	viability	104%
COC(=O)c1cc(NC2=NC(=O)C(=Cc3ccc(N(C)C)cc3)S2)ccc1OC(C)=O	MCF7	GC-MS, item: Tyrosine	–	1 µM	relative to: DMSO	metabolite level	-1.48 fold change
O=C(N1CCCC1)n1cc(-c2ccc(-c3ccccc3)cc2)nn1	mouse T cells	N-terminal labelling proteomics, item: Fbxo7 N-terminal peptide	–	0.001 µM, 6 h	relative to: DMSO	SILAC ratio per peptide	1.23 and 0.88 and 0.85

Excerpt of the above:
SMILES	tested on	assay	system	conditions	scale	measurement	result
COc1cccc(OC)c1-c1cc(C(=O)NC2(C(=O)O)C3CC4CC(C3)CC2C4)nn1-c1ccc(C(=O)NCCNC(=O)[C@H](CCCCNC(=O)[C@H](CC(C)C)NC(=O)C2OC2C(=O)O)NC(=O)CN2CCN(CC(=O)[O-])CCN(CC(=O)[O-])CCN(CC(=O)[O-])CC2)cc1C(C)C.[177Lu+3] (mixture of isomers)	HT-29	–	–	240 min, 4 h	relative to: added activity	internalized fraction	2.08 ± 0.11%
Cc1ncsc1-c1ccc(C(C)NC(=O)C2CC(O)CN2C(=O)C(NC(=O)CCCCCCCCCCN2CCCC(Nc3ncc(Cl)c(Nc4ccccc4S(=O)(=O)C(C)C)n3)C2)C(C)(C)C)cc1 (stereo not shown)	22Rv1	RNA-seq, item: ZNF730 mRNA	–	concentration not given	relative to: DMSO	log2 fold change	-1.98
CC(C)(C)c1cc(-c2ccc3cc4ccccc4nc3n2)nc(-c2ccc3cc4ccccc4nc3n2)c1.[Cl-].[Cl-].[Ru+2].c1ccc2cc3nc4c5cccnc5c5ncccc5c4nc3cc2c1	A-375	resazurin	–	together with: light 633 nm, 100 J/cm2	relative to: dark EC50 over light EC50	phototoxicity index	2
CCc1c(-c2ccc3[nH]ncc3c2)cnc(N)c1-c1ccc(O)cc1	CHP-212	cell growth or viability, SRB	–	0.3906 µM	–	viability	104%
COC(=O)c1cc(NC2=NC(=O)C(=Cc3ccc(N(C)C)cc3)S2)ccc1OC(C)=O	MCF7	GC-MS, item: Tyrosine	–	1 µM	relative to: DMSO	metabolite level	-1.48 fold change
